Measured values collected from several papers.
Every numbered part comes from another study and shows a few of its results, in no order.

Study 1 — technique: aptamer microarray, sandwich; form: DNA with 2'F-ANA; medium: in vitro; tested at: 200 nM; added: Cy3 exosite-II aptamer, 400 nM; reading: higher = stronger binding; strand: GGTTGGTGTGGTTGG
Target: Prothrombin, mature alpha-thrombin (F2, Homo sapiens, UniProt P00734)
Notes: whole 15-mer aptamer, many near background
Modification	mean fluorescence intensity
2'F-ANA at 1 4 6 7 9 10 11 14	53.2 a.u.
2'F-ANA at 1 3 4 5 10 11 14 15	43.7 a.u.
2'F-ANA at 2 3 5 7 8 9 10 11 12 13	56.9 a.u.
2'F-ANA at 7 8 9 12 13 15	741 a.u.
2'F-ANA at 2 4 5 8 10 14 15	47.1 a.u.
2'F-ANA at 3 5 7 10 11 12 13 14 15	55 a.u.
2'F-ANA at 1 3 4 7 10 11 12 14	53.8 a.u.
2'F-ANA at 2 5 6 7 11 12 13 14 15	52.5 a.u.
2'F-ANA at 1 2 3 4 6 7 11 12	240 a.u.
2'F-ANA at 8 10	172 a.u.
2'F-ANA at 1 3 4 6 8 9 14	62.2 a.u.
2'F-ANA at 1 2 4 6 7 9 11 14 15	47.8 a.u.
2'F-ANA at 2 5 6 11 14 15	133 a.u.
2'F-ANA at 1 2 3 5 6 8 9 10 11 12 13 14 15	72.8 a.u.
2'F-ANA at 3 4 5 6 10 11 12 15	55.9 a.u.
2'F-ANA at 1 2 6 10 11 13	48.7 a.u.

Study 2 — technique: protein binding microarray; form: double-stranded DNA, one strand shown; medium: in vitro; tested at: not given; reference: not given; reading: higher = stronger binding
Target: Histone acetyltransferase KAT6A, both winged helices, GST fusion (KAT6A, Homo sapiens, UniProt Q92794, residues 1-181)
Notes: 8-mer, flanks averaged, mean of 2 arrays, mostly near background
Construct (chain): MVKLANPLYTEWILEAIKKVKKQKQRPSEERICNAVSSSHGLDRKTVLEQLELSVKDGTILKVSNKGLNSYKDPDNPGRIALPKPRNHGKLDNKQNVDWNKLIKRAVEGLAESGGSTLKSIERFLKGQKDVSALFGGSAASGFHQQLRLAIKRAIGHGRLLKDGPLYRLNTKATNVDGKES
Strand	E-score
GCACGCGC	0.288
AGTGGCAT	-0.185
CATGCATG	-0.0652
CAGGGATG	-0.0523
GAATCTGA	-0.138
GCATAACA	-0.214
AATTGTTC	0.037
CTATCTAA	-0.0577
CGAGCGTA	0.251
ATTACTTC	-0.159
ATAATCCC	-0.0458
TCTTACCA	-0.0899
ACTTTCTA	-0.0695
GAAAAAAA	-0.0576
TAATAAGA	-0.175
AGTGGTTA	-0.244
ACCTAGTC	-0.0799
CCCAATCC	-0.258
AGGTAAAC	-0.0259
AGTAGCGG	0.159
GGGCCACC	-0.0793

Study 3 — technique: RNA Bind-n-Seq; form: RNA; medium: in vitro; tested at: not given; notes: RNA with constant flanks, ends assumed; reference: input RNA pool; reading: higher = stronger binding
Target: RING finger protein unkempt homolog, zinc fingers 1-6, GST-SBP tag (UNK, Homo sapiens, UniProt Q9C0B0, residues 30-357)
Constant ends, left off below: GGGAGUUCUACAGUCCGACGAUC … CAACAGAGGAUUGAGCAUCA
Construct (chain): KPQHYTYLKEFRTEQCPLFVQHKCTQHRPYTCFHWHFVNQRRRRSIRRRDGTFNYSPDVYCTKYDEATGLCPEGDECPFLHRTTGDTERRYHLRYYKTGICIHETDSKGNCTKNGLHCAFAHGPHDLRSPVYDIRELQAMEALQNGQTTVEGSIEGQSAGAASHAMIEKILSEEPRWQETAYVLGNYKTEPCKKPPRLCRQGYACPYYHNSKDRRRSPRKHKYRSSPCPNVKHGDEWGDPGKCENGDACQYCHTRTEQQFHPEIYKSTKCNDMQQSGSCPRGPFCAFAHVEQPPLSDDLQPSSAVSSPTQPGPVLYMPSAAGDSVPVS
Strand	bound/input enrichment [ratio]
GUGUCCUGCUUUCAACUUAAAUCACUGAGGCAUCUCUACUGUUCUGUGAGCAUCAGGACUGCCGCGCUGUGUCACCACAUGAGAGUUCAGAAGCAGCCUUUCUGUGGAGGGUGGGAAUGA	0.166
AUAAGUUAUACUUUCCGUUCAGUUUGUGUUUGUUCCAUAUGCGGAGUGUGGCACUCUGGCCCGCUGAGUUCAGUUCCCACGGGGACUCCUGUUUCUUAGGAAGCAUGCCAAAUGCCAGCU	0.225
AGUUUUUCUGCUUCCAAAAUAUUUAUUUCUGCAUUAGCCAUGGAAGGACAGCAACUUUCCGCCGCAUAUCCUUGCGCUUUGUUAUAUGGAGUCUUUGCCCUGAUUUCCGUCUUUUGAAAA	0.397
CGCGUGCGUGCGUGUGUGUGCGCGCGCUAGUGUGUGGACAAGGAGGUGGGGGCAGCUGAGUCCGAGUCCCAACUCUUGGACUCCAUUUGCUAUUCUCUUCUUUCUCCCCCACACCUAUCU	0.0907
CGCGUCCCCUUCUCGCUCCUGCGGGGCCCCAGCUGGGACCCCUUCCGCGACUGGUACCCGCACCGCCGCCUCUUCGACCAGGCCUUCGGGCUGCCCCGGCUGCCGGAGGAGUGGUCGCAG	0.163
AUAAACACAUUUAAAUUACUGUCAUAUGCUUCCUAUUGCAUUGAGCAUGGUGAUCUGGAGCCCGCAGCAAAGUUUGUCAAUCAGCUGAAGGGGGAAUCCAGACGAGUGGCACAGGACUGG	0.437
UUACCGGCUGAAGAAGGAAAAACCUUGCUGGAACUUGUGAUUGAGCAGUUUGAAGACUUGCCCGUCCGGAUUUUAUUACUGGCAGCAUGUAUAUCUUUUGUUUUGGCUUGGUUUGAAGAA	0.219
UUCCACUUUUUUUUCCUUCAUGGAGACUGUUUGUUUGGCUUUCUUCCAUUGUUGUUUUUGCCGCAUUUAUUUCAGAAAUGUGUAUUUCCAUAAUCCAGAGGUUGUAAAACCACUAGUGUU	0.327

Study 4 — technique: universal PBM; form: double-stranded DNA, one strand shown; medium: in vitro; tested at: not given; reading: higher = stronger binding
Target: Sal-like protein 4, full length isoform B (SALL4, Homo sapiens, UniProt Q9UJQ4-2, residues 1-616)
Notes: 8-mer, flanks averaged, mean of replicates
Strand	E-score
ACGTGTCC	-0.187
TACAGAAA	0.208
GTCGTAAA	0.102
CAAGTGCC	-0.235
CTATCCCA	-0.0321
CACTTCCA	-0.0381
ACCGTCCC	-0.0555
AGTACTGA	0.104
ACCATAAC	0.257
ATTGCAAT	0.182
CCAGTGTA	0.0407
CAATCACC	-0.103
CACCTGGA	-0.12
GCGAGACA	-0.301
TCCAGCCA	-0.218
CGAGTGAC	-0.241

Study 5 — technique: RNA Bind-n-Seq; form: RNA; medium: in vitro; tested at: 365 nM; reference: no-protein control; reading: higher = stronger binding
Target: RNA binding protein fox-1 homolog 2, RRM domain, GST-SBP tag (RBFOX2, Homo sapiens, UniProt O43251-10, residues 100-194)
Notes: natural RNA segment, single round, ends assumed
Constant ends, left off below: GGGAGUUCUACAGUCCGACGAUC … UGGAAUUCUCGGGUGCCAA
Construct (chain): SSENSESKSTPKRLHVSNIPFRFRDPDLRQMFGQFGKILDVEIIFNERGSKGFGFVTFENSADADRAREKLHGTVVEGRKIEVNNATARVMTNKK
Strand	RBNS enrichment (R)
UUUUUUUAAAGAUUUAUUUAUAUGAGUACACUGUGGCUGUCUCAGACACACCAGAAGAGGGCAUCAGAUCCCAUUACAGAUGGUUGUGAGCCACCAUGUGGUUGCUUUAA	2.28
UAGAAUGGCAUCCUGGUCCUGGAUGCAGAUUCUCAAGUAAAAUUGCUGUUAAAUUUCUUCAAGUCCAGAGAAGCAAAUCUUAGUGCGGGCAGACCGAGUUAGUGUUUGAU	3.12
UUCUUGCUGAUCACAUUGACACUGUCUGUGUUUGAUUUGCUGAGCUCUUGGAUGUUGGGAGUGUAGCAGGCACAGGAGGUACCUCUGCAGAAGGAAGGCGGAGGGUGGAG	1.43
GUUAGCCUCCACCACCCUUUCCCCCUUCUCUUAGUUAUUGCUGAAGAGGGUUGGUAUAAAAAUAAUUUUAAAAAAGCCUUCCUACACGUUAGAUUUGCCGUACCAAUCUC	0.538
UGAGCCGCGUCAUCUGUUUGCGCUGGGCAAGGAGCUGCACCGCUGCGUUGACCUGCCUUGUCUUACGGUACACACAGCAAUAAAGCCUGGGUUCCGCCCGGUCUCCACCC	0.841
UAGGACACUACAAAACAAUCAAAUAAUUCUUUUCUGUAAUCCAAUAUGCAGCAAGCAAGGGUGACCUCCAGUGGCCCACUCAAGUCCAUGAGCCAUUAUCUAGGAUACUU	0.357
GCAGGUGACCAAGCACGGUCCCUCGUGGGACUGGAUUCGCCAUUUUCUUAUAUCUGCUGCUAAAUCGCCAAGCCCGGAAGAUUAGGGUUGUUUCUGGGAUUCCUGUAGAC	0.568
GUAACAAUGUAUAAAUAGUGGCUUUUCUGUACAAAAGGUUGUAAUGCCUCCUGAUGGAUAUAAUUUUGUGAUUGUAUUUAAAAGUUGAAUAAAUCACACCAGCUUCCUGA	1.46

Repeated from above (study 1):
Modification	mean fluorescence intensity
2'F-ANA at 2 5 6 7 11 12 13 14 15	52.5 a.u.
2'F-ANA at 1 2 4 6 7 9 11 14 15	47.8 a.u.
2'F-ANA at 2 4 5 8 10 14 15	47.1 a.u.
2'F-ANA at 1 4 6 7 9 10 11 14	53.2 a.u.
2'F-ANA at 8 10	172 a.u.
2'F-ANA at 3 4 5 6 10 11 12 15	55.9 a.u.
2'F-ANA at 1 3 4 7 10 11 12 14	53.8 a.u.
2'F-ANA at 2 3 5 7 8 9 10 11 12 13	56.9 a.u.
